Experimental data of several laboratories.
A part holds a random share of what one study measured.

Set 1
Target: Replicase polyprotein 1ab, nsp12 with nsp7/nsp8 (rep, Severe acute respiratory syndrome coronavirus 2, UniProt P0DTD1)
Read-out: polymerase activity
Organism: SARS-CoV-2
Concentration: 20 µM
SMILES	inhibition
CCN(CC)C(=S)S	-5.73%
Cc1ccc(-n2sc(=O)n(Cc3ccc(F)cc3)c2=O)cc1	-1.91%
O=C1C=CC(=O)C2=C1C1c3ccccc3C2c2ccccc21	-5.44%
CC(C)N[C@@H]1CCn2c(=O)[nH]c3cccc(c32)[C@H]1O	11.3%
O=[N+]([O-])C=Cc1ccc2c(c1)OCO2	-1.04%
CC(C)n1nc(C#Cc2ccccc2)c2c(N)ncnc21	1.95%
N#CSc1cc(SC#N)c(N)nc1N	29.3%
CC(=O)OC[C@H]1O[C@@H]([S-])[C@H](OC(C)=O)[C@@H](OC(C)=O)[C@@H]1OC(C)=O.CCP(CC)CC.[Au+]	-4.54%
O=C1C(c2ccccn2)=[N+]([O-])c2ccccc21	1.69%
CCn1c(N)c(C(=O)NC)c(=O)c2ccc(C#C[C@@](C)(O)COC)nc21	3.57%
O=C1C=Cc2cc(Br)ccc2C1=O	4.46%
CO/N=C(\C(=O)N[C@@H]1C(=O)N2C(C(=O)O)=C(CSC(=O)c3ccco3)CS[C@H]12)c1csc(N)n1	1.88%
Cc1nc(C#Cc2ccnc(Cl)c2)c(C)n1-c1ccc(OC(F)(F)F)cc1	0.79%
Cc1ccc(S(=O)(=O)/C=C/C#N)cc1	0.25%
O=C(/C=C/c1ccc2ccccc2n1)c1ccncc1	1.59%

Set 2
Target: Protein max, full length (MAX, Homo sapiens, UniProt P61244-2, residues 1-151)
Technique: protein-binding microarray
Molecule type: double-stranded DNA, one strand shown
Sample: in vitro
Concentration: not given
Setting: k-mer, scored over probes, only values ≥0.25
Reading: higher = stronger binding
Sequence	E-score
CGTGTTAC	0.349
CGCAACCA	0.252
CACGCGCC	0.446
CTCCACGC	0.392
CATGGTCG	0.354
AGGCGTGA	0.33
AACGCATG	0.453
CACGTTTA	0.358

Set 3
Target: Replicase polyprotein 1ab, main protease (rep, Severe acute respiratory syndrome coronavirus 2, UniProt P0DTD1)
Read-out: enzyme activity
Mode: inhibitor
Concentration: 20 µM
Setting: hit confirmation
SMILES	inhibition [%]
CC(=O)OC/C=C(C)/C=C/C=C(C)/C=C/C1=C(C)CCCC1(C)C	47.7
CN(C)C(=S)SSC(=S)N(C)C	99.9
CN(C)/N=N/c1ccc(C(=O)O)cc1	20.7
CCCCCCCCCCCCCCCCCC[S+](CCC)c1ccccc1C(=O)OCC (stereo not shown)	74.6

Set 4
Cell line: HEK-293T
Organism: VSV pseudotyped with SARS-CoV-2 spike
Concentration: 10 µM
Time: 16 h
Compound	pseudovirus infection
Cc1cc2c(s1)Nc1ccccc1N=C2N1CCN(C)CC1	41.8%
C=CCN1CC[C@]23c4c5ccc(O)c4O[C@H]2C(=O)CC[C@@]3(O)[C@H]1C5	106%
NC(=O)C(c1ccccc1)(c1ccccc1)[C@@H]1CCN(CCc2ccc3c(c2)CCO3)C1	34.7%
COc1cc2c(c(OC)c1OC)-c1ccc(OC)c(=O)cc1[C@@H](NC(C)=O)CC2	21.3%
